Results collected from several papers.
A part holds a random share of what one study measured. Positions count from the first letter of the parent shown.
UniProt Q32MK0, sequence (whole entry, looked up): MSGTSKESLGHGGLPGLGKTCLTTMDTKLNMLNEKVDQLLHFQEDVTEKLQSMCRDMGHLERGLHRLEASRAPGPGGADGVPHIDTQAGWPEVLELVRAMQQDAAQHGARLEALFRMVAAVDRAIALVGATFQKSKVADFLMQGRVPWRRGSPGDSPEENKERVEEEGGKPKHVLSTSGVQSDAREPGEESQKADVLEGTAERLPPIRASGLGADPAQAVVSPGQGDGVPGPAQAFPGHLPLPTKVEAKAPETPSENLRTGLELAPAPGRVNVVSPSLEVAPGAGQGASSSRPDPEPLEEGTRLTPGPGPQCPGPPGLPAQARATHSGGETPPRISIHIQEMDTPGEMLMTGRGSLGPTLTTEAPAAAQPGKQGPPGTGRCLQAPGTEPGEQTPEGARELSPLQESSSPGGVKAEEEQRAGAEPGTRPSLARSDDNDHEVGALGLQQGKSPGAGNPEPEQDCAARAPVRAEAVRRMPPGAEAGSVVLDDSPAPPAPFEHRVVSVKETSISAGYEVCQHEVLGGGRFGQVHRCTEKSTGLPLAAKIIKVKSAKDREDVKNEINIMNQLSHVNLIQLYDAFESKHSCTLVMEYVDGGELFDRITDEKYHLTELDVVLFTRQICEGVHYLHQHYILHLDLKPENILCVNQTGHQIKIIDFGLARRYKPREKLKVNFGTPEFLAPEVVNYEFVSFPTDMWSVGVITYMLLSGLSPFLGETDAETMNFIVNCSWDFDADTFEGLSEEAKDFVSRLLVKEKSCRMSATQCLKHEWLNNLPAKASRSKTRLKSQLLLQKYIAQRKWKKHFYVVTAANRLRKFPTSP

Block 1
Target: CRIPT, C-terminal peptide
Technique: DHFR complementation, deep sequencing
Matrix: yeast
Notes: single substitutions, model-inferred values
Relative to: wild type
Reading: higher = weaker binding
Starting sequence: ERBIN, PDZ domain 1 (human); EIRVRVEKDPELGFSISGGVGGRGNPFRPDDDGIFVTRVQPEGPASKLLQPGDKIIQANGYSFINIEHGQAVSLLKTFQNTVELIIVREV; partner TKNYKQTSV
| Variant | binding free energy change [kcal/mol] |
| --- | --- |
| R88M | 1.6 |
| V39E | 0.859 |
| Q50F | -0.0504 |
| V87K | -0.00412 |
| R23D | -2.27 |
| S17R | 1.19 |
| D32L | 0.358 |
| K54G | 1.28 |

Block 2
Target: PABPC1L2, full length, GST fusion (mouse, UniProt A0ABA7IW68)
Technique: RNAcompete
Form: RNA
Matrix: in vitro
Concentration: 20 nM
Notes: 7-mer, probes averaged, single round
Relative to: mean of 7-mers
Reading: higher = stronger binding
Target sequence (chain): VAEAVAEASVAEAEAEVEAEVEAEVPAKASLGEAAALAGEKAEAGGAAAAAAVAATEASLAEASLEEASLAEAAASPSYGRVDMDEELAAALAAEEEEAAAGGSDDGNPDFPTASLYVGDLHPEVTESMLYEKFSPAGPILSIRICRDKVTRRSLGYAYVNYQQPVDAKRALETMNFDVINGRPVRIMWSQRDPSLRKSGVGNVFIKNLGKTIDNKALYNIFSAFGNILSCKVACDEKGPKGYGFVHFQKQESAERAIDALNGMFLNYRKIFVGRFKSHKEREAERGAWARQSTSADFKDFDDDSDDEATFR
| Sequence | 7-mer Z-score |
| --- | --- |
| AUAGCUG | -0.153 |
| CUUGAUU | -0.103 |
| UUAUUCA | -0.173 |
| GGCCGUA | -0.0391 |
| CUACAAC | -0.191 |
| CGCCGUU | -0.427 |
| AAUAAAC | 2.83 |
| GUAUCAU | -0.115 |

Block 3
Target: Histone acetyltransferase KAT6A, winged helix 1, GST fusion (KAT6A, Homo sapiens, UniProt Q92794, residues 1-85)
Technique: protein binding microarray
Form: double-stranded DNA, one strand shown
Matrix: in vitro
Concentration: not given
Notes: 8-mer, flanks averaged, mean of 2 arrays, mostly near background
Relative to: not given
Reading: higher = stronger binding
Target sequence (chain): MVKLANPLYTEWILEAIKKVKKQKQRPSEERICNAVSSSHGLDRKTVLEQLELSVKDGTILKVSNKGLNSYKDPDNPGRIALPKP
| Sequence | E-score |
| --- | --- |
| GAACAAGA | -0.0783 |
| CACAGAAG | -0.216 |
| CGGGTCAA | 0.184 |
| AAGCTGGC | -0.0203 |
| CGCTAGAC | 0.0788 |
| GAATCCGA | 0.137 |
| CAGATATG | -0.129 |
| CACACGGG | 0.205 |

Single results of other studies
| SMILES | target | read-out | technique | concentration | measurement | value |
| --- | --- | --- | --- | --- | --- | --- |
| CO[C@H]1CC[C@H](CNc2ccc(S(=O)(=O)NC(=O)c3ccc(N4CCN(CC5=C(c6ccc(Cl)cc6)CC(C)(C)CC5)CC4)cc3Oc3cnc4[nH]ccc4c3)cc2[N+](=O)[O-])CC1 | Myosin light chain kinase (MYLK3, Homo sapiens, UniProt Q32MK0) | cell-free assay | competition with immobilised ligand | 1 µM | remaining binding | 100% |

Repeated from above (single results of other studies):
| SMILES | target | read-out | technique | concentration | measurement | value |
| --- | --- | --- | --- | --- | --- | --- |
| CO[C@H]1CC[C@H](CNc2ccc(S(=O)(=O)NC(=O)c3ccc(N4CCN(CC5=C(c6ccc(Cl)cc6)CC(C)(C)CC5)CC4)cc3Oc3cnc4[nH]ccc4c3)cc2[N+](=O)[O-])CC1 | Myosin light chain kinase (MYLK3, Homo sapiens, UniProt Q32MK0) | cell-free assay | competition with immobilised ligand | 1 µM | remaining binding | 100% |
